Measurements collected from several papers.
Numbered parts are unrelated; each lists some results of a single study. Positions count from the first letter of the parent shown.

Series 1
Target: CCNB1, cyclin fold, Cln2 fusion (human)
Method: yeast growth competition, sequencing
Sample: yeast
Notes: weak parent motif
Relative to: not given
Reading: higher = stronger binding
Endpoint: normalised enrichment score
Starting sequence: SCAPER docking peptide (human); SNARRSLNFGGST
S1T: 0.689
N2V: 0.683
S6K: 1.29
T13V: 0.917
S6T: 0.185
S1K: 0.206
G10A: 0.473
R4N: 0.486
N2H: 0.354
G11I: 0.275
S12P: 0.466
G10H: 0.864
R5Y: 0.251
G10W: 0.431
L7G: 0.0891
T13D: 1.34
N2D: 0.403
F9M: 0.715
T13Q: 0.253

Series 2
Target: ABI1, truncated, D143A, DHFR fusion (Arabidopsis thaliana)
Method: DHFR PCA, deep sequencing
Sample: yeast
Notes: methotrexate growth selection, single substitutions
With: (+)-ABA 2500 µM
Relative to: wild-type fitted maximum
Reading: higher = stronger binding
Endpoint: relative binding score
Starting sequence: PYL1, truncated, DHFR fusion (Arabidopsis thaliana); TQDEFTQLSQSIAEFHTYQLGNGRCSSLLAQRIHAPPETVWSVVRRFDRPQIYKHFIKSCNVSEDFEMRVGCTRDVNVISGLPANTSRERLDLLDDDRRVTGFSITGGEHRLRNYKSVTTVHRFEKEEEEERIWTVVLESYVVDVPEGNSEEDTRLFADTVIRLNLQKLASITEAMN; partner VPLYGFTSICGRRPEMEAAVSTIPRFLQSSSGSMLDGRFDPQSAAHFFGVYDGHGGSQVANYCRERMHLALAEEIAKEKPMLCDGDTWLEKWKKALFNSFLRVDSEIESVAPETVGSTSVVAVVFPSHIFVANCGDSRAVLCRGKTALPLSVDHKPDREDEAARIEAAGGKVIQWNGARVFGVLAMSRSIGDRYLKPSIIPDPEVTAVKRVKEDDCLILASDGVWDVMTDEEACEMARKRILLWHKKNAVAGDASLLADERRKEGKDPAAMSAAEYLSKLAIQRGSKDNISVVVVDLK
S171E: 100%
S59T: 98%
G81K: 88.9%
I162F: -11.7%
V40A: 79.4%
C25G: 81.9%
I33R: -2.23%
S59H: 92.5%
V121F: 23%
W134S: 108%
I172N: 81.2%
R46D: 82.7%
W134T: 108%
R113K: 109%
V43N: 92.8%
P146T: 79.4%

Series 3
Molecule: PhoQ, residues 284 288 289 292 302 303 GLASVI
Method: Sort-seq
Item: YFP reporter
Sample: E. coli
Notes: PhoQ-PhoP variant library
With: 10 µM Mg2+
Relative to: high Mg2+ state
Reading: higher = stronger signaling
Endpoint: fold induction
PhoP, residues 12 14 15 18 19 VHTVL (Escherichia coli, UniProt P23836): 5.65
PhoP, residues 12 14 15 18 19 ICWRQ (Escherichia coli, UniProt P23836): 16.8
PhoP, residues 12 14 15 18 19 TQCLL (Escherichia coli, UniProt P23836): 4.18

Series 4
Target: RING finger protein unkempt homolog, zinc fingers 1-6, SBP tag (UNK, Homo sapiens, UniProt Q9C0B0, residues 30-357)
Chain of UniProt Q9C0B0 (30-357, looked up): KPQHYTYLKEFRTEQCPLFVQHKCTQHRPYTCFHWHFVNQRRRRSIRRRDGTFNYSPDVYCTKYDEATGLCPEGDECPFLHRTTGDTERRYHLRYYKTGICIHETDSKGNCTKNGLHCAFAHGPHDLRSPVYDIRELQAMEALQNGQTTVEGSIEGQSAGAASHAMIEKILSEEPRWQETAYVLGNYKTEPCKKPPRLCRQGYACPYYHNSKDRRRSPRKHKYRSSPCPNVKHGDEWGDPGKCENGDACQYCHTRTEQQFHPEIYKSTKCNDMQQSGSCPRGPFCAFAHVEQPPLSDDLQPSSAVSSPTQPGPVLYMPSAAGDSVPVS
Method: RNA Bind-n-Seq
Form: RNA
Sample: in vitro
Tested at: 100 nM
Notes: RNA with constant flanks, vertebrate orthologous sites, ends assumed
Relative to: input RNA pool
Reading: higher = stronger binding
Endpoint: bound/input enrichment
Shared flanks, not repeated: GGGAGUUCUACAGUCCGACGAUC … CAACAGAGGAUUGAGCAUCA
UGUCCUCGUUAAGCACUGCGUUCCAGACCGUGUCUGACUUAGUUAACCUAGGGGAUUUUAUAGUUUUCCUUUAAUGAAGUCCUGAUUAACACAGAGCAGUGGGGAGGACGGUCCCUCUCC: 0.47 ratio
GAGCUCCAGGAGUUAGCAUCUUUAUUUUUGUAUUAAAGAUAAAGGUUAUUUUGAAAUUAUUAGGAUUUUUACACAAUUCUGAAAUCUAUUGCUUUUGUAAAUCAAUUGUUUGAUCACCCC: 1.42 ratio
CUGAAGCUUUGUGUUUGGCUGCACCUGCGUAAGCUGCUACAAAUAGAAUAAAGAAUUUCAUAGCCUGUAUCUAUCAUUUAGAUGCAUGGAAAAAUGGGCUUUGCACACAAUGGGUUUGGA: 2.43 ratio
ACAAUCUUCUACUUAAACUGGUAUUUUCAAACAAUAGGAACCUAUUUUUUUUUGUUACAGUUUAGUAUCUCGUUUCUACAUGGAAGACUAAACUCAUGCUUAUAGCUAAAUGUGGUCUUU: 0.451 ratio
AUAUUCAGUCAUGGAGAAAAACAUAUUAAAAUAACUUCAUGGCACUGAUGUUAGUUCUAUUAGUUUUAUAAAAGUUAGGAUUCUUACUUAGGAACAACAGAAAAUGACUGUUAAGGAGAA: 1.96 ratio
GCCCGUGCUUAUGCUCUUCUGAGGAAGAGAGGAAUUGGGGAAAACUGUCUCCUUUUUAUAGUUUCUUUCUAAAUUAUGACCAAAAGAUAUUUUGCUAUUUCUUUCUUUAUAUAUGGACUU: 1.18 ratio
CACAUCUGGUGAUAUUUGGCCUGGCCUUUCAGCUUAUGAUAAUAGUCCCAGAUCACCUCAUAGUCCUUCACCGAUUGCUACACCACCUAGUCAGAGUUCAUCUUGCUCUGAUGCCCCCAU: 0.817 ratio
UAAAUACUGUGCAGGUGGCAUACCAGCAUAGGCAAAGCUUUCAAAGAGAAAAUAUCUUACAAAGCAUUUGUAAAGAUAUAUUUAAAGAAAAAAAGAAAUUGAAGAACUGAAACCCAAAGC: 0.501 ratio
AGAGACAAUGGCCACUUAUCACCUCAGUGAGGUAAAGGCUCCUUGGUAUUUGGUUGGUACUAAAGCCAGUGAUUCCUCAUAAGUCUUUUCACAUUUCAUUUCUUUCAUACUCAGUCAUCU: 0.609 ratio
AGUCUAGAAGGGGUAACCACUAACUUAUUUUAUAAGGAAAGGAAAUGCUGAAAAUCAUGUUAGUGCCAAGUGCAGUUGGAGAACAUAAGCCACUUUUAGGUAAUUCUCAAGUGGAAAUCC: 0.854 ratio
UUCACUACUCCUGAGCGUGUGACUGAGGGUGAAGCAUCCACCAGUGCUUCGAGGGCGCCGUAGUAUAUUUUUGCUGCCUCAGAGUCCCCAAAGCCUUCAAGCAGAAGUGGUAGUAGAUAG: 1.06 ratio

Series 5
Target: TAR DNA-binding protein 43, full length, His tag (TARDBP, Homo sapiens, UniProt Q13148, residues 1-414)
Method: RNA Bind-n-Seq
Form: RNA
Sample: in vitro
Tested at: 20 nM
Notes: 6-mer, flanks averaged, single round
With: 150 mM LiCl
Relative to: input library
Reading: higher = stronger binding
Endpoint: 6-mer enrichment (R)
GCGUUA: 1
GGGCUU: 1.02
GCGGCA: 1.02
CGCAGG: 0.959
CAGUCU: 0.83
CAGUGU: 1.17
CUUUCG: 0.885
CGCUAC: 0.877
AAAAUU: 0.941
UAGGCG: 0.991
GACGUG: 1.08
CGGAGC: 0.959
UAUGGA: 1.05
CAUUAU: 0.962

Series 6
Target: Histone acetyltransferase KAT6A, winged helix 2, GST fusion (KAT6A, Homo sapiens, UniProt Q92794, residues 85-181)
Method: protein binding microarray
Form: double-stranded DNA, one strand shown
Sample: in vitro
Tested at: not given
Notes: 8-mer, flanks averaged, mean of 2 arrays, mostly near background
Relative to: not given
Reading: higher = stronger binding
Endpoint: E-score
Target sequence (chain): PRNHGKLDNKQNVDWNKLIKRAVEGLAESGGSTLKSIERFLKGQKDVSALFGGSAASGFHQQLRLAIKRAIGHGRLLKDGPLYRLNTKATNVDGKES
TTATACAA: 0.2
CACTCTAA: -0.146
GTTTAAAC: 0.182
GACAGCTA: -0.101
CGTTCCAC: 0.00673
CATAAAGC: -0.00288
TAGATAGA: -0.278
CGTGTTGA: 0.0475
GAACGCGA: 0.0586
ACCGCGAA: 0.124
CACGCGGC: 0.0567
AGACTCGA: -0.0994
GGTTCGAA: 0.108
ATTGGGCA: 0.096
ACATATCT: -0.00252
CTACTTCC: -0.0569
AGCGGGTA: 0.129
ATCAACGA: 0.136
GCGGAGAA: 0.138
ACTCCGAT: -0.0098
CTTCATAC: -0.0255
TCAGAAAA: 0.0652
ATTCGCCA: 0.0316
CGCAATTC: -0.0327
AACTTTGT: -0.0227

Series 7
Target: Prothrombin, mature alpha-thrombin (F2, Homo sapiens, UniProt P00734)
Method: aptamer microarray, sandwich
Form: DNA with 2'F-ANA
Sample: in vitro
Tested at: 200 nM
Notes: whole 15-mer aptamer, many near background
With: Cy3 exosite-II aptamer, 400 nM
Reading: higher = stronger binding
Endpoint: mean fluorescence intensity
Strand: GGTTGGTGTGGTTGG
2'F-ANA at 1 2 6 7 11 12 14 15: 66.5 a.u.
2'F-ANA at 3 4 5 7 8 9 12 15: 201 a.u.
2'F-ANA at 3 5 7 8 10 11 12: 69.5 a.u.
2'F-ANA at 4 6 8 9 10 12 13 15: 73.9 a.u.
2'F-ANA at 3 4 7 8 9 10 12 15: 369 a.u.
2'F-ANA at 2 4 5 8 11 12 13 15: 82.7 a.u.
2'F-ANA at 2 4 5 9 10 13 14 15: 46.5 a.u.
2'F-ANA at 5 9 10 14: 45.3 a.u.
2'F-ANA at 3 5 7 8 9 10 12 13 14: 127 a.u.
2'F-ANA at 2 3 5 6 8 11 13 14: 52.5 a.u.
2'F-ANA at 5 6 8 9 10 13 14: 164 a.u.
2'F-ANA at 3 5 6 8 11 12 13 14 15: 65.2 a.u.
2'F-ANA at 1 2 4 9 11 12 13 15: 154 a.u.
2'F-ANA at 1 3 4 5 7 9 10 12 15: 54 a.u.
2'F-ANA at 1 2 3 4 5 6 8 10 11 13 15: 52.8 a.u.
2'F-ANA at 4 6 7 9 10 13: 64.6 a.u.
2'F-ANA at 1 3 4 6 7 11 13: 127 a.u.
2'F-ANA at 3 5 6 13: 79.8 a.u.

For quick reference, copied from above (series 6):
CGTGTTGA: 0.0475
GAACGCGA: 0.0586
ACCGCGAA: 0.124
CACGCGGC: 0.0567
AGACTCGA: -0.0994
GGTTCGAA: 0.108
ATTGGGCA: 0.096
ACATATCT: -0.00252
CTACTTCC: -0.0569
AGCGGGTA: 0.129
ATCAACGA: 0.136
GCGGAGAA: 0.138
ACTCCGAT: -0.0098
CTTCATAC: -0.0255
